Experimental data of several laboratories.
Each numbered part is a random draw from the data of one study; scales do not carry over between parts. Changes are numbered by the printed parent chain.

Series 1
Target: Histone acetyltransferase KAT6A, winged helix 2, GST fusion (KAT6A, Homo sapiens, UniProt Q92794, residues 85-181)
Technique: protein binding microarray
Form: double-stranded DNA, one strand shown
Medium: in vitro
Concentration: not given
Notes: 8-mer, flanks averaged, mean of 2 arrays, mostly near background
Baseline: not given
Direction: higher = stronger binding
Construct (chain): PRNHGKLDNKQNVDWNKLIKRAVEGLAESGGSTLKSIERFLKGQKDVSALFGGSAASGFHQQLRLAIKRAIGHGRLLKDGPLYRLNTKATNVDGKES
Sequence	E-score
TACTGTGA	-0.0962
CCCCCAAG	-0.0741
GGAGGATA	0.0587
CAAATCAA	-0.103
AGAAGAAG	0.0241
AACCCCAA	-0.077
AACGGTGT	-0.12

Series 2
Target: Interferon regulatory factor 5, full length, phosphomimetic (IRF5, Homo sapiens, UniProt Q13568-2, residues 1-514, S451D/S453D/S456D/S462D)
Technique: protein-binding microarray
Form: double-stranded DNA, one strand shown
Medium: in vitro
Concentration: 940 nM top
Notes: 60-bp whole probe
Together with: salmon DNA 0.4 mg/ml
Baseline: random background probes
Direction: higher = stronger binding
Constant ends, left off below: GCCTAGCAC … GTGCTAGGTCTTGATTCGCTTGACGCTGCTG
Sequence	fitted relative affinity [z-score]
CTGCACTCCAGTCTGGGAGA	-0.334
CCTATTATATATATCATAAG	0.439
GACGGTTACCTTATCCTGAC	-0.457
GACGGTCGCGGTATCGGGAC	1.01
TCAAATTTTGCTTCTAGACT	-0.0574
GACGATTTCAGTTCCAAGAC	0.776
TTAGGACAGCTTTTCCTTTA	-0.647
GACGATCTCAGACTCGAGAC	-0.31

Series 3
Target: CCNE1, cyclin fold, Cln2 fusion (human)
Technique: yeast growth competition, sequencing
Medium: yeast
Notes: weak parent motif
Baseline: not given
Direction: higher = stronger binding
Parent: SLBP docking peptide (human); ARYKRKLLINDFG
Variant	normalised enrichment score
R5N	0.0677
N10L	1.78
L8H	0.255
D11Q	0.601
Y3K	-0.363

Single results of other studies
Molecule	target	assay	test system	conditions	scale	measurement	result
PhoQ, residues 284 288 289 292 302 303 SSTLLI	PhoP, residues 12 14 15 18 19 LHTVM (Escherichia coli, UniProt P23836)	Sort-seq, refers to: YFP reporter	E. coli	PhoQ-PhoP variant library, together with: 10 µM Mg2+	baseline: high Mg2+ state, higher = stronger signaling	fold induction	12.8

For quick reference, copied from above (series 1):
Sequence	E-score
AACCCCAA	-0.077
GGAGGATA	0.0587
AACGGTGT	-0.12
